Published values from different studies.
Protocols differ between the studies behind these lines. ± gives the spread as reported.
Cell line: HUVEC

| Structure (SMILES) | test | conditions | how to read | measurement | result |
| --- | --- | --- | --- | --- | --- |
| CN(C)C/C=C/C(=O)Nc1cc2c(Nc3ccc(F)c(Cl)c3)ncnc2cc1O[C@H]1CCOC1 | – | – | – | IC50 | 2760 ± 220 nM |
| CC(=O)OC[C@H]1O[C@@H]([S-])[C@H](OC(C)=O)[C@@H](OC(C)=O)[C@@H]1OC(C)=O.CCP(CC)CC.[Au+] | total tube length, tube formation | IC10, 16 h | relative to: untreated | inhibition | 23% |
| CCN1CCN(c2ccc(Nc3cc(N(C)C(=O)Nc4c(Cl)c(OC)cc(OC)c4Cl)ncn3)cc2)CC1 | ERK phosphorylation, inhibitor, refers to: phospho-ERK1/2 | with: bFGF | – | IC50 | 3.8 ± 0.8 nM |
| O=C(Nc1ccc(-c2ccccc2)cc1)[C@H]1O[C@H](O[C@@H]2[C@@H](OCc3ccc4ccccc4c3)[C@H](O[C@H]3O[C@H](CNS(=O)(=O)O)[C@@H](OCc4ccc5ccccc5c4)C[C@H]3NS(=O)(=O)O)[C@@H](NS(=O)(=O)O)C[C@H]2NS(=O)(=O)O)[C@H](OCc2ccc3ccccc3c2)[C@@H](NS(=O)(=O)O)[C@@H]1OCc1ccc2ccccc2c1 | cytotoxicity | 48 h | – | EC50 | 48.9 ± 3.83 µM |
| O=C(Nc1cc(C(F)(F)F)ccc1N1CCCCC1)c1ccncc1 | Matrigel | concentration not given, 6 h, 37 °C | – | tube formation | no effect |
| CO[C@H]1/C=C\C=C(/C)C(=O)NC2=C(c3ccccc3)C(=O)C(NCCN(C)C)=C(C[C@@H](C)C[C@H](OC)[C@H](O)[C@@H](C)/C=C(\C)[C@@H]1OC(N)=O)C2=O | cytotoxicity, MTT | – | – | IC50 | 17700 ± 1600 nM |
| CO[C@H]1O[C@H](COS(=O)(=O)O)[C@@H](O[C@@H]2O[C@@H](C(=O)O)[C@@H](O[C@H]3O[C@H](COS(=O)(=O)O)[C@@H](O[C@@H]4O[C@H](C(=O)O)[C@@H](O[C@H]5O[C@H](COS(=O)(=O)O)[C@@H](O)[C@H](O)[C@H]5NS(=O)(=O)O)[C@H](O)[C@H]4O)[C@H](OS(=O)(=O)O)[C@H]3NS(=O)(=O)O)[C@H](O)[C@H]2OS(=O)(=O)O)[C@H](O)[C@H]1NS(=O)(=O)O | β2GPI/anti-β2GPI antibody binding | up to 200 µM | – | inhibition | no inhibition |
| C[C@H](CS)C(=O)N1CCC[C@H]1C(=O)O | western blot | 10, 100, 1 µM, with: angiotensin II | relative to: angiotensin II alone | p-IκBα/IκBα ratio | 30.1 % decrease |
| CC/C=C\C[C@H](O)/C=C/C=C\C/C=C\C=C\[C@@H](O)C/C=C\CCC(=O)O | HTRF | concentration not given | – | cAMP level | increased |
| CO[C@H]1/C=C\C=C(/C)C(=O)NC2=C(C)C(=O)C(NCCN(C)C)=C(C[C@@H](C)C[C@H](OC)[C@H](O)[C@@H](C)/C=C(\C)[C@@H]1OC(N)=O)C2=O | cytotoxicity, MTT | – | – | IC50 | > 20000 nM |

A few entries again:
| Structure (SMILES) | test | conditions | how to read | measurement | result |
| --- | --- | --- | --- | --- | --- |
| O=C(Nc1ccc(-c2ccccc2)cc1)[C@H]1O[C@H](O[C@@H]2[C@@H](OCc3ccc4ccccc4c3)[C@H](O[C@H]3O[C@H](CNS(=O)(=O)O)[C@@H](OCc4ccc5ccccc5c4)C[C@H]3NS(=O)(=O)O)[C@@H](NS(=O)(=O)O)C[C@H]2NS(=O)(=O)O)[C@H](OCc2ccc3ccccc3c2)[C@@H](NS(=O)(=O)O)[C@@H]1OCc1ccc2ccccc2c1 | cytotoxicity | 48 h | – | EC50 | 48.9 ± 3.83 µM |
| O=C(Nc1cc(C(F)(F)F)ccc1N1CCCCC1)c1ccncc1 | Matrigel | concentration not given, 6 h, 37 °C | – | tube formation | no effect |
